Results gathered from unrelated publications.
Each line is one published result; not all experiments were run side by side. Several values in a cell are separate wells, animals, samples, runs or records. Numbers after ± are the reported error. In brackets after ≈: the same amount, converted by molar mass.

Structure (SMILES) = [O-][N+]1=C(c2ccsc2)C2=NCCCN2c2ccccc21; organism = Prevotella spp.; test = bacterial growth; quantity = MIC90; result = 0.5 µg/mL (≈ 1.76 µM)
Structure (SMILES) = CCCSC(SCCC)c1ccc(OCCNS(=O)(=O)c2ccc(C)cc2)cc1; organism = Tobacco mosaic virus; test = protective activity; test system = plant in vivo; quantity = EC50; result = 597.1 ± 1.7 µg/mL
Structure (SMILES) = CCOC(=O)C1(CC=C(C)C)Oc2cc(F)ccc2N(CC=C(C)C)C1=O (stereo not shown); organism = Echinochloa crus-galli; test = fresh weight, greenhouse postemergence; setting = postemergence, 150 g ai/ha, 21 days; quantity = inhibition; result = 53.78 ± 0.4%
Structure (SMILES) = C[C@H]1O[C@@H](O[C@H]2CC[C@@]3(C)[C@H](C2)C[C@@H]2O[C@]24[C@@H]3C[C@@H](O)[C@]2(C)[C@@H](C3=CC(=O)OC3)CC[C@@]24O)[C@H](O)[C@H](O)[C@@H]1O[C@@H]1O[C@H](CO)[C@@H](O)[C@H](O)[C@H]1O; organism = Oncopeltus fasciatus; setting = diet, concentration not given; quantity = time to adulthood; result = 23.4 days
Structure (SMILES) = CC(C)SC(SC(C)C)c1ccc(OCCNS(=O)(=O)c2cccc(Br)c2)c(Cl)c1; organism = Tobacco mosaic virus; test = protective activity; test system = plant in vivo; quantity = EC50; result = 330 ± 3.8 µg/mL
Structure (SMILES) = CC[C@H](C)[C@H](NC(=O)[C@H](CCCNC(=N)N)NC(=O)[C@H](CO)NC(=O)[C@H](Cc1ccc(O)cc1)NC(=O)[C@@H](NC(=O)[C@@H](NC(=O)[C@H](C)NC(=O)CNC(=O)[C@H](CCCCN)NC(=O)[C@H](CCCCN)NC(=O)CCNC(=O)CCCCCNC(=O)[C@H](CCCNC(=N)N)NC(=O)CCCCCNC(=O)[C@H](CCCNC(=N)N)NC(=O)[C@H](CCCNC(=N)N)NC(=O)CCCCCNC(=O)[C@H](CCCNC(=N)N)NC(=O)[C@H](CCCNC(=N)N)NC(=O)CCCCCNC(=O)[C@H](CCCNC(=N)N)NC(=O)[C@H](CCCNC(=N)N)NC(=O)CCCCCNC(=O)[C@@H](N)CCCNC(=N)N)C(C)C)[C@@H](C)O)C(=O)N[C@@H](CO)C(=O)NCC(=O)N[C@@H](CCC(N)=O)C(=O)N[C@@H](Cc1ccc(O)cc1)C(=O)N[C@@H](CCCCN)C(=O)O; organism = Escherichia coli; test system = ATCC 25922, Mueller-Hinton broth; setting = with: CaCl2 2 mM; quantity = MIC; result = 48 µM (≈ 171 µg/mL)
Structure (SMILES) = CC[C@H](C)[C@H](NC(=O)[C@H](C)NC(=O)CNC(=O)[C@H](C)NC(=O)[C@H](CCCCN)NC(=O)[C@H](CO)NC(=O)[C@H](C)NC(=O)[C@H](CCSC)NC(=O)CN)C(=O)N[C@@H](C)C(=O)NCC(=O)N[C@@H](CCCCN)C(=O)N[C@H](C(=O)N[C@@H](C)C(=O)N[C@@H](CCCCN)C(=O)N[C@H](C(=O)N[C@@H](C)C(=O)N[C@@H](CC(C)C)C(=O)N[C@@H](CCCCN)C(=O)N[C@@H](C)C(=O)N[C@@H](CC(C)C)C(N)=O)C(C)C)[C@@H](C)CC; organism = Escherichia coli; test system = 0370 wild type; setting = 24 h, 30 °C, at EC90, mean of ratios, with: nalidixic acid; quantity = combination index; result = 1.26
Structure (SMILES) = CC[C@H](C)[C@H](NC(=O)[C@H](CCCCN)NC(=O)[C@H](CCCCN)NC(=O)[C@H](Cc1ccccc1)NC(=O)[C@H](Cc1ccccc1)NC(=O)[C@H](CCCCN)NC(=O)[C@H](CCCCN)NC(=O)[C@H](Cc1ccccc1)NC(=O)[C@H](CCCNC(=N)N)NC(=O)[C@@H](N)CCCCN)C(=O)N[C@@H](CCCCN)C(=O)N[C@@H](CCCCN)C(=O)N[C@@H](CO)C(=O)N[C@H](C(=O)N[C@@H](CCCCN)C(=O)N[C@@H](CCCCN)C(=O)N[C@@H](CCCNC(=N)N)C(=O)N[C@H](C(=O)N[C@@H](CCCCN)C(=O)N[C@@H](CCCCN)C(=O)N[C@@H](CC(C)C)C(=O)N[C@@H](Cc1ccccc1)C(=O)N[C@@H](CCCCN)C(=O)N[C@@H](CCCCN)C(=O)N1CCC[C@H]1C(=O)N[C@@H](CCCNC(=N)N)C(=O)N[C@H](C(=O)N[C@H](C(=O)N1CCC[C@H]1C(=O)N[C@H](C(=O)N[C@@H](CO)C(=O)N[C@H](C(=O)N1CCC[C@H]1C(=O)N[C@@H](Cc1ccccc1)C(=O)O)[C@@H](C)CC)[C@@H](C)CC)[C@@H](C)CC)C(C)C)C(C)C)C(C)C; organism = Pseudomonas aeruginosa; test system = ATCC 27853; setting = 20 h; quantity = MBC; result = 16 µg/mL (≈ 3.79 µM)
Structure (SMILES) = CCn1cnc2c(Oc3ccc(/C=C/C(=O)c4ccc(NS(=O)(=O)c5ccccc5C)cc4)cc3)ncnc21; organism = tobacco mosaic virus; test = protective activity; test system = in vivo plant; quantity = EC50; result = 447.2 ± 2.1 µg/mL
Structure (SMILES) = CCOC(=O)C1(Cc2ccc(-c3ccccc3)cc2)Oc2cc(F)ccc2N(Cc2ccc(-c3ccccc3)cc2)C1=O (stereo not shown); organism = Eclipta prostrata; test = fresh weight, greenhouse postemergence; setting = postemergence, 150 g ai/ha, 21 days; quantity = inhibition; result = 65.1 ± 2.52%
Structure (SMILES) = Cc1ccc(S(=O)(=O)NCCOc2ccc(C(SC(C)C)SC(C)C)cc2)cc1; organism = Tobacco mosaic virus; test = inactivation activity; test system = plant in vivo; quantity = EC50; result = 521.9 ± 0.9 µg/mL
Structure (SMILES) = CC[C@H](C)[C@@H]1NC(=O)[C@@H](CCCNC(=N)N)NC(=O)[C@@H](NC(=O)[C@@H](CC(C)C)NC(=O)[C@H](C)NC(=O)[C@H](C)NC(=O)[C@@H]2CCCN2C(=O)[C@@H](CC(C)C)NC(=O)[C@@H](NC(=O)[C@@H](CCCNC(=N)N)NC(=O)[C@@H](CC(C)C)NC(=O)[C@@H](CC(C)C)NC(=O)[C@@H](NC(=O)[C@@H](CCCNC(=N)N)NC(=O)[C@@H](CC(C)C)NC(=O)[C@@H](NC(=O)[C@@H](NC(=O)CNC(=O)[C@@H](CC(C)C)NC(=O)[C@@H](N)Cc2ccccc2)[C@@H](C)O)C(C)C)C(C)C)C(C)C)CSSC[C@@H](C(=O)O)NC(=O)[C@@H](CCCNC(=N)N)NC(=O)[C@@H](CCCNC(=N)N)NC(=O)[C@H](Cc2ccccc2)NC1=O; organism = Streptococcus pyogenes; test system = Galleria mellonella larvae; setting = 32 mg/kg, titanium implant biofilm infection; quantity = survival rate; result = 90%
Structure (SMILES) = COc1cc(C(SC(C)C)SC(C)C)ccc1OCCNS(=O)(=O)c1ccc(C)cc1; organism = Tobacco mosaic virus; test = protective activity; test system = plant in vivo; quantity = EC50; result = 567.9 ± 4.6 µg/mL
Structure (SMILES) = CCOC(=O)C1(Cc2cccc(C)c2)Oc2cc(F)ccc2N(Cc2cccc(C)c2)C1=O (stereo not shown); organism = Eclipta prostrata; test = fresh weight, greenhouse postemergence; setting = postemergence, 150 g ai/ha, 21 days; quantity = inhibition; result = 56.2 ± 3.04%
Structure (SMILES) = CC[C@H](C)CCCCC(=O)N[C@@H](CCN)C(=O)N[C@H](C(=O)N[C@@H](CCN)C(=O)N[C@H]1CCNC(=O)[C@H]([C@@H](C)O)NC(=O)[C@H](CCN)NC(=O)[C@H](CCN)NC(=O)[C@H](CC(C)C)NC(=O)[C@@H](CC(C)C)NC(=O)[C@H](CCN)NC1=O)[C@@H](C)O; organism = Escherichia coli; test = daily serial passaging; test system = ATCC 8739; setting = highest sub-MIC, 11 days; scale = reference: initial MIC; quantity = MIC fold change; result = 1.47
Structure (SMILES) = [O-][N+]1=C(c2ccc(Cl)cc2)C2=NCCCCN2c2ccccc21; organism = Parabacteroides distasonis and Bacteroides spp.; test = bacterial growth; quantity = MIC50; result = 1 µg/mL (≈ 3.07 µM)
Structure (SMILES) = COc1cc(C(SC(C)C)SC(C)C)ccc1OCCNS(=O)(=O)c1ccc(Cl)cc1; organism = Tobacco mosaic virus; test = curative activity; test system = plant in vivo; quantity = EC50; result = 271 ± 3.7 µg/mL
Structure (SMILES) = Cc1cc(C(=O)Nc2nc3cccc(C)c3n2[C@H]2CCCCN(C(=O)/C=C/CN(C)C)C2)ccn1; organism = Trypanosoma brucei; test = propidium iodide flow cytometry, refers to: S phase; test system = bloodstream parental line; setting = concentration not given; quantity = cell cycle distribution; result = 16.6% and 15.8% and 18.2%
Structure (SMILES) = COc1ccccc1-c1n[nH]c2nc(N[C@H]3CC[C@H](NS(=O)(=O)CC(C)C)CC3)ncc12; organism = Leishmania donovani; test = cell growth; test system = promastigotes, LdBOB CRK3 single knockout; quantity = EC50; result = 0.47 ± 0.02 nM
Structure (SMILES) = O=[N+]([O-])c1ccc(C2=[N+]([O-])c3ccccc3N3CCCN=C23)cc1; organism = Parabacteroides distasonis and Bacteroides spp.; test = bacterial growth; quantity = MIC50; result = ≤ 0.06 µg/mL
Structure (SMILES) = Cc1ccc(N2CC3CC(C2)N3C)cc1C(=O)NC1(c2ccc3c4c(cccc24)C(=O)N3C)CC1; organism = Human coronavirus NL63; test = viral replication, inhibitor; quantity = IC50; result = 81.6 nM
Structure (SMILES) = Cc1cc(N2CCC(C#N)(C3(C)CC3)C2=O)cc(C(=O)NCc2cc(F)cc(-c3cnn(C)c3)c2)n1 (racemic); organism = Plasmodium falciparum; test = parasite growth, [3H]hypoxanthine incorporation; test system = Dd2 DSM265-resistant, Pfdhodh mutant; quantity = IC50; result = 19 nM
Structure (SMILES) = OB(O)c1ccc(C(F)(F)F)s1; organism = Staphylococcus aureus; test system = USA300 wild type; setting = 100 µM; scale = reference: untreated; quantity = growth relative to untreated; result = 51.8% and 57.9% and 44.1% and 35.5% and 45.2% and 40.9%
Structure (SMILES) = C[C@H](NC(=O)Cc1cc(F)cc(F)c1)C(=O)N[C@@H]1C(=O)N(C)c2ccccc2-c2ccccc21; organism = dengue virus type 2; test = viral replication, Renilla luciferase reporter virus; test system = Huh-7.5.1; setting = 48 h; quantity = EC50; result = 20 nM
Structure (SMILES) = O=C(NNc1ccc(Cl)cc1)c1nnc(CC23CC4CC(CC(C4)C2)C3)o1; organism = Sclerotinia sclerotiorum; test = microbial growth; setting = 50 µg/mL; quantity = inhibition; result = 100%
Structure (SMILES) = CCOC(=O)C1(Cc2ccc(C(F)(F)F)cc2)Oc2cc(F)ccc2N(Cc2ccc(C(F)(F)F)cc2)C1=O (stereo not shown); organism = Eclipta prostrata; test = fresh weight, greenhouse postemergence; setting = postemergence, 150 g ai/ha, 21 days; quantity = inhibition; result = 59.1 ± 3.76%
Structure (SMILES) = CCN(CC)CCO.O=C(O)C(Cl)Cl; organism = Eclipta prostrata; setting = 15 mg/mL, 21 days, pre-emergence, greenhouse; quantity = herbicidal inhibition; result = 0%
Structure (SMILES) = CCCSC(SCCC)c1ccc(OCCNS(=O)(=O)c2ccc(C)cc2)c(OC)c1; organism = Tobacco mosaic virus; test = inactivation activity; test system = plant in vivo; quantity = EC50; result = 156.5 ± 0.8 µg/mL
Structure (SMILES) = COc1ccc(C2=[N+]([O-])c3ccccc3N3CCN=C23)cc1; organism = Prevotella spp.; test = bacterial growth; quantity = MIC50; result = ≤ 0.06 µg/mL
Structure (SMILES) = CCOC(=O)C1(Cc2ccccc2)Oc2ccccc2N(Cc2ccccc2)C1=O (stereo not shown); organism = Eclipta prostrata; test = fresh weight, greenhouse postemergence; setting = postemergence, 150 g ai/ha, 21 days; quantity = inhibition; result = 56.2 ± 3.84%
Structure (SMILES) = COc1ccc(C2=[N+]([O-])c3ccccc3N3CCCN=C23)cc1; organism = Parabacteroides distasonis and Bacteroides spp.; test = bacterial growth; quantity = MIC90; result = 2 µg/mL (≈ 6.51 µM)
Structure (SMILES) = CCOC(=O)C1(Cc2ccc(C#N)cc2F)Oc2cc(F)ccc2N(Cc2ccc(C#N)cc2F)C1=O (stereo not shown); organism = Echinochloa crus-galli; test = fresh weight, greenhouse postemergence; setting = postemergence, 150 g ai/ha, 21 days; quantity = inhibition; result = 39.8 ± 1.92%
Structure (SMILES) = COc1cc(C(SC(C)C)SC(C)C)ccc1OCCNS(=O)(=O)c1ccccc1C(F)(F)F; organism = tobacco mosaic virus; test = curative activity; test system = in vivo plant; quantity = EC50; result = > 2500 µg/mL
Structure (SMILES) = [O-][N+]1=C(c2ccccc2)C2=NCCCN2c2ncccc21; organism = Prevotella spp.; test = bacterial growth; quantity = MIC90; result = 0.125 µg/mL (≈ 0.449 µM)
Structure (SMILES) = FC(F)(F)c1cccc(CNc2nc(NC3CCN(Cc4ccccc4)CC3)c3nc[nH]c3n2)c1; organism = Cryptococcus neoformans; test = RNA-seq, refers to: CNAG_03262; setting = 48 µg/mL, 3 h; scale = reference: untreated; quantity = mRNA fold change; result = 1.15
Structure (SMILES) = [O-][N+]1=C(c2ccc(Cl)cc2)C2=NCCCN2c2ccccc21; organism = Prevotella spp.; test = bacterial growth; quantity = MIC90; result = 1 µg/mL (≈ 3.21 µM)
Structure (SMILES) = CN(C(=O)c1ccn2ncc(-c3ccc(C(N)=O)cc3)c2c1)c1ccc(C#N)cn1; organism = Cryptosporidium parvum; test system = UGA1 Nluc, IFN-gamma knockout C57BL/6 mice, faeces; setting = oral, 10 mg/kg daily, 432 h post infection, treatment days 11-17; scale = higher means more parasites; quantity = faecal Nluc luminescence; result = 280 a.u. and 57 a.u. and 2210 a.u. and 3280 a.u. and 3020 a.u.
